Experimental data pooled from the literature.
Compare with care: the assays were run in different laboratories. “And” joins repeats or separate records; there may be more than shown. ± marks the error that the study gave. Values after ≈ are worked out from the molar mass of the structure shown.
Chain of UniProt P06276 (whole entry, looked up): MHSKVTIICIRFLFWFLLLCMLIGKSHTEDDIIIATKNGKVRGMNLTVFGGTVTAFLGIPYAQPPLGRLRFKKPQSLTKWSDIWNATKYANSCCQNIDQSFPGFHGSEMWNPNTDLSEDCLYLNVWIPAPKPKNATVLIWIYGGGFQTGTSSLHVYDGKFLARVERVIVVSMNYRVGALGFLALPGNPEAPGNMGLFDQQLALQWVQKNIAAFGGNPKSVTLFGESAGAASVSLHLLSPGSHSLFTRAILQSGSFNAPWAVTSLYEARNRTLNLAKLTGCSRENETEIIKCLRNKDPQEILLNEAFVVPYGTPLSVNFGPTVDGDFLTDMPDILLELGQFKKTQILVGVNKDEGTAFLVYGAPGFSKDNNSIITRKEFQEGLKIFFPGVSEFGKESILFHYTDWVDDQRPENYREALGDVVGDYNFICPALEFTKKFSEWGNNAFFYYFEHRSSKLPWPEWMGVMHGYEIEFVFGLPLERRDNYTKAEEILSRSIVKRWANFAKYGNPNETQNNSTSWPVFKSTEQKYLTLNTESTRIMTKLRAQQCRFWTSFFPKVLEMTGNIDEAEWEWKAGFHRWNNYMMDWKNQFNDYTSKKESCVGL

| SMILES | target or system | test | system | conditions | scale | measurement | result |
| --- | --- | --- | --- | --- | --- | --- | --- |
| CNCC[C@@H](Oc1ccccc1C)c1ccccc1 | Plasmodium falciparum |  | 3D7 |  |  | IC50 | 20000 nM |
| Nc1ccn(C[C@@H](CO)OCP(=O)(O)O)c(=O)n1 | Fowlpox virus | viral infection | CEF | 1.562 µM | relative to: untreated | infection | 108% and 101% |
| COc1ccccc1Cn1ccnc1SCC(=O)Nc1cccc(C(F)(F)F)c1 | Plasmodium falciparum | parasite growth, SYBR Green | 3D7 wild type | 72 h |  | EC50 | 592 ± 240 nM |
| NC(=O)c1cc[n+](CC2=C(C(=O)O)N3C(=O)[C@@H](NC(=O)[C@@H](c4ccccc4)S(=O)(=O)[O-])[C@H]3SC2)cc1 | PBP3 Streptococcus pneumoniae | Bocillin-FL competition | live Streptococcus pneumoniae cells | 30 min, together with: Bocillin-FL 600 nM |  | kinact/KI | 3300 ± 250 M⁻¹ s⁻¹ |
| COc1ccc2c(c1)[nH]c1c(C)nccc12 | DU-145 | bisulfite pyrosequencing, item: RASSF1A promoter CpG site 25 |  | 10 µM, 16 h |  | DNA methylation | 86.7% |
| CN(C)c1ccc(O)c2c1C[C@H]1C[C@H]3[C@H](N(C)C)C(O)=C(C(N)=O)C(=O)[C@@]3(O)C(O)=C1C2=O | Plasmodium falciparum |  | 3D7 |  |  | IC50 | 794 nM |
| CCCCC1(CCCC)CN(c2ccccc2)c2cc(SC)c(OCC(=O)N[C@@H](C(=O)NCC(=O)O)c3ccccc3)cc2S(=O)(=O)C1 |  | item: LDL cholesterol | human, serum | 10 mg once daily, day 7 |  | serum LDL-C | 90 mg/dL |
| CC[C@H](C)[C@@H]1NC(=O)[C@@H]2CCCN2C(=O)[C@H](CC(C)C)NC(=O)[C@H](CC(C)C)NC(=O)CNC(=O)[C@@H](NC(=O)[C@@H](NC(=O)[C@H](CC(=O)O)NC(=O)CNC(=O)[C@@H](NC(=O)[C@H](C)NC(=O)CNC(=O)[C@H](CCCCN)NC(=O)[C@H](CC(C)C)NC(=O)[C@H](CC(C)C)NC(=O)[C@H](CCCCN)NC(=O)CNC(=O)[C@@H](NC(=O)[C@@H](N)CC(C)C)C(C)C)C(C)C)C(C)C)CSSC[C@@H](C(=O)O)NC1=O |  | RNA-seq, item: Emilin2 | mouse, traumatic brain injury model, frontal cortex and hippocampus | dose not given | relative to: TBI alone | log2 fold change | -2.08 |
| N=C(N)NCCC[C@H](NC(=O)CCCCCNC(=O)[C@H](CCCNC(=N)N)NC(=O)[C@H](CCCNC(=N)N)NC(=O)CCCCCNC(=O)[C@H](CCCNC(=N)N)NC(=O)[C@H](CCCNC(=N)N)NC(=O)CCCCCNC(=O)[C@H](CCCNC(=N)N)NC(=O)[C@H](CCCNC(=N)N)NC(=O)CCCCCNC(=O)[C@@H](N)CCCNC(=N)N)C(=O)NCCCCCC(=O)NCCC(=O)O |  | broth microdilution | ATCC 33591 resistant strain, Mueller-Hinton broth |  |  | MIC | 48 µM (≈ 91.4 µg/mL) |
| CC(COc1ccccc1)N(CCCl)Cc1ccccc1 (stereo not shown) | Plasmodium falciparum |  | D10 |  |  | IC50 | 10000 nM |
| C[C@@H](O)[C@@H]1NC(=O)[C@H](Cc2ccccc2)NC(=O)[C@@H](Cc2ccccc2)NC(=O)[C@H](Cc2ccccc2)NC(=O)[C@@H](CCCN)NC(=O)[C@H](CCCCN)NC(=O)[C@@H](CCCCN)NC1=O | Acanthamoeba castellanii |  |  | trophozoites |  | IC50 | 12.9 µg/mL |
| CCCCN1[C@@H]2CC[C@H]1C[C@@H](OC(c1ccc(F)cc1)c1ccc(F)cc1)C2 | Plasmodium falciparum |  | D10 |  |  | IC50 | 3160 nM |
| Nc1ncnc2c1ncn2[C@@H]1O[C@@H]2COP(=O)(O)O[C@H]3[C@@H](O)[C@H](n4cnc5c(=O)[nH]cnc54)O[C@@H]3COP(=O)(O)O[C@H]2[C@H]1O | HFF-1 | RNA sequencing, item: Reactome R-HSA-2022090 |  | downregulated pathway | relative to: Zika virus alone | pathway fold enrichment | 10.7 |
| N=C(N)c1ccc(OCc2cc(Br)cc(COc3ccc(C(=N)N)cc3)c2)cc1 | Escherichia coli | checkerboard | mcr-3 polymyxin-resistant | concentration not given, together with: rifampicin |  | MIC of compound in combination | 6.25 µg/mL |
| COCCn1c2nc(=O)n(-c3ccccc3)c(=O)c-2nc2ccccc21 | Zika virus | viral replication |  |  |  | EC50 | 690 nM |
| COc1c(CCC[P+](c2ccccc2)(c2ccccc2)c2ccccc2)cc2c(c1OC)OCO2.[I-] | NCI-H226 | SRB |  |  |  | GI50 | -5.48 log M |
| COc1cc2nc(N3CCN(C(=O)C4COc5ccccc5O4)CC3)nc(N)c2cc1OC (stereo not shown) | Plasmodium falciparum |  | 7G8 |  |  | IC50 | 2000 nM |

| SMILES | target or system | test | system | conditions | scale | measurement | result |
| --- | --- | --- | --- | --- | --- | --- | --- |
| COc1cc(CCC[P+](c2ccccc2)(c2ccccc2)c2ccccc2)c(OC)c2c1OCO2.[I-] | SNB-75 | SRB |  |  |  | GI50 | -5.92 log M |
| O=C(Nc1cccc(CN2CCN(C(=O)c3cccc(Cl)c3)CC2)c1)c1ccco1.O=C(O)C(F)(F)F | Plasmodium falciparum | parasite growth, SYBR Green |  | 72 h | relative to: 3D7-E182D over 3D7 | EC50 ratio | 15 |
| O=C(NC1C2CC3CC(C2)CC1C3)c1cc(-c2ccncc2F)c[nH]1 (stereo not shown) | Vero |  |  | 48 h |  | IC50 | 45.7 µg/mL |
| C#CCN(C)[C@H](C)Cc1ccccc1 |  | footprint test | MPTP-induced Parkinson's disease mouse model | 10 mg/kg, trial 1 |  | corridor crossing time | 6.87 s and 5.41 s and 3.47 s and 8.21 s and 5.71 s and 7.14 s and 4.28 s |
| CNCCCN1c2ccccc2CCc2ccccc21 | Plasmodium falciparum |  | 7G8 |  |  | IC50 | 5010 nM |
| CC(C)[C@@H]1NC(=O)[C@@H](CCCN)NC(=O)[C@H]([C@@H](C)O)NC(=O)[C@H](Cc2ccccc2)NC(=O)[C@@H](Cc2ccccc2)NC(=O)[C@H](Cc2ccccc2)NC(=O)[C@@H](CCCN)NC1=O | Acanthamoeba castellanii |  |  | trophozoites |  | IC90 | > 16 µg/mL |
| Cc1sc(CNCCCNc2cc(=O)c3ccccc3[nH]2)c(I)c1C | Plasmodium falciparum | parasite growth | Dd2 |  |  | EC50 | 604 ± 30 nM |
| CN1CCC(=C2c3ccccc3CC(=O)c3sccc32)CC1 | Plasmodium falciparum |  | 3D7 |  |  | IC50 | 3160 nM |
| COc1ccc(-n2nc(C(C)=O)s/c2=N\N=C(/C)c2ccc(NC(C)=O)cc2)cc1 | HepG2 |  |  | 0.312 µM |  | viability | 14% |
| C[C@H]1c2cccc(O)c2C(=O)C2=C(O)[C@]3(O)C(=O)C(C(N)=O)=C(O)[C@@H](N(C)C)[C@@H]3[C@@H](O)[C@@H]21 | Plasmodium falciparum |  | W2 |  |  | IC50 | 794 nM |
| C[C@H]1[C@@H](O)O[C@@H]2O[C@@]3(C)CC[C@H]4[C@H](C)CC[C@@H]1[C@@]24OO3 | Plasmodium falciparum | parasite growth | Dd2 |  |  | EC50 | 2.28 ± 0.4 nM |
| CC(C)[C@@H]1NC(=O)[C@@H](CCCCN)NC(=O)[C@H](CCCN)NC(=O)[C@@H](CC(=O)O)NC(=O)[C@H](C)NC(=O)[C@H](Cc2c[nH]c3ccccc23)NC(=O)[C@@H](Cc2c[nH]c3ccccc23)NC1=O | Naegleria fowleri |  |  | trophozoites |  | IC50 | > 16 µg/mL |
| Cc1cc(Nc2ccc(C)c(Cl)c2)n2nc(C(F)(F)F)nc2n1 | Plasmodium falciparum | parasite growth, SYBR Green |  | 72 h | relative to: 3D7-E182D over 3D7 | EC50 ratio | 16 |
| C[C@]1(CO)Cc2ncn(-c3ccc(C#N)c(Cl)c3)c2C(=O)O1 |  |  | human | 5 mg single dose |  | urinary sodium excretion Ae(0-24h) | 224 mmol |
| O=c1nc(-c2ccccn2)sc2ccccc12 | Cholinesterase (BCHE, Homo sapiens, UniProt P06276) | enzyme activity, inhibitor |  | Triton |  | IC50 | 6180 ± 2840 nM |
| C[C@H]1NC(=O)[C@H](Cc2c[nH]c3ccccc23)NC(=O)[C@@H](Cc2ccccc2)NC(=O)[C@@H](CCCN)NC(=O)[C@H]([C@@H](C)O)NC(=O)[C@@H](CCCN)NC(=O)[C@H](Cc2c[nH]c3ccccc23)NC(=O)[C@@H](C)NC1=O | Naegleria fowleri |  |  | trophozoites |  | IC50 | > 16 µg/mL |
| C[C@H](C(=O)N[C@H]1COc2ccccc2[C@@H]1S(C)(=O)=O)c1ccc(F)cc1 | L-type calcium channel, rat, Dihydropyridine site | binding |  | 10 µM, Eurofins selectivity panel |  | inhibition | 3% |

For quick reference, copied from above:
| SMILES | target or system | test | system | conditions | scale | measurement | result |
| --- | --- | --- | --- | --- | --- | --- | --- |
| CNCC[C@@H](Oc1ccccc1C)c1ccccc1 | Plasmodium falciparum |  | 3D7 |  |  | IC50 | 20000 nM |
| Nc1ccn(C[C@@H](CO)OCP(=O)(O)O)c(=O)n1 | Fowlpox virus | viral infection | CEF | 1.562 µM | relative to: untreated | infection | 108% and 101% |
| COc1ccccc1Cn1ccnc1SCC(=O)Nc1cccc(C(F)(F)F)c1 | Plasmodium falciparum | parasite growth, SYBR Green | 3D7 wild type | 72 h |  | EC50 | 592 ± 240 nM |
| NC(=O)c1cc[n+](CC2=C(C(=O)O)N3C(=O)[C@@H](NC(=O)[C@@H](c4ccccc4)S(=O)(=O)[O-])[C@H]3SC2)cc1 | PBP3 Streptococcus pneumoniae | Bocillin-FL competition | live Streptococcus pneumoniae cells | 30 min, together with: Bocillin-FL 600 nM |  | kinact/KI | 3300 ± 250 M⁻¹ s⁻¹ |
